Assay results pooled from the literature.
Lines come from different studies, so protocols differ. ± gives the spread as reported.
Sequence of UniProt P35462 (whole entry, looked up): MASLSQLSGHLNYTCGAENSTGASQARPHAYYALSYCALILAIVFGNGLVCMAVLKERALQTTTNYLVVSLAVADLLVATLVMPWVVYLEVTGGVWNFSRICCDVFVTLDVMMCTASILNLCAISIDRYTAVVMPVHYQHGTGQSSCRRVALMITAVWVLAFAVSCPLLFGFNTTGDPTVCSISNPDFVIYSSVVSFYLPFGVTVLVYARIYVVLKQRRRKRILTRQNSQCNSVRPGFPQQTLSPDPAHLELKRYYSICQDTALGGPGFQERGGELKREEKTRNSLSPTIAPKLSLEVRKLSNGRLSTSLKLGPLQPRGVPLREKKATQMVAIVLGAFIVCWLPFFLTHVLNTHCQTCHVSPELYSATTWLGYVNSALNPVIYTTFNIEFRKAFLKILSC

O=C(COc1ccc(N2C(=O)[C@@H]3[C@@H]4C=C[C@@H]([C@H]5C[C@@H]45)[C@@H]3C2=O)cc1)c1ccc(Cl)cc1
IC50 (Mut6 cells; cell viability, CellTiter-Glo; 96 h): 0.00238 µM

C[C@@H]1CC[C@@H]([C@](C)(O)CNCc2cccc3ccccc23)[C@H](OCc2ccccc2)C1
IC50 (A2780; cell growth, inhibitor, MTT; 72 h): 13.7 µM

CCCCN1C[C@H](O)[C@@H](O)[C@@H](O)[C@H]1CO
IC50 (sample H patient fibroblasts; GlcCer level lowering, LC-MS/MS, item: GlcCer d18:1/24:1; 216 h): 21.1 µM

C=CC(=O)Nc1cc(Nc2ncc(C(=O)OC(C)C)c(-c3cn(C)c4ccccc34)n2)c(OC)cc1N(C)CCN(C)C
IC50 (NCI-H2073 KI SVD; cell proliferation, CellTiter-Glo; 72 h): 0.01 µM

CCOc1cc([C@@H](CS(C)(=O)=O)N2C(=O)c3cccc(NC(C)=O)c3C2=O)ccc1OC
IC50 (human PBMC; cytokine release, item: TNF-α; 24 h, added: anti-CD28, and anti-CD3ε): 0.059 µM

Cc1nc(NC(=O)N2CCC[C@H]2C(N)=O)sc1-c1ccnc(C(C)(C)C(F)(F)F)c1
IC50 (AGS; growth rate inhibition, CellTiter-Glo; 120 h): 3.49 µM

C=CC(=O)N1CCC[C@@H](c2ccc(C(N)=O)c3[nH]ccc23)C1
IC50 (TMD8; calcium flux, FLIPR; 2 h preincubation, added: anti-IgM): > 1 µM

OCc1ccc(-c2nn(Cc3ccncc3)c3ccccc23)o1
IC50 (SNU-1079; cell viability, CellTiter-Glo): 0.23 µM

N#Cc1ccc(Oc2ccc3c(c2)COB3O)cc1
IC50 (human PBMC; cytokine release, item: IL-10; 24 h, added: anti-CD28, and anti-CD3ε): 0.33 µM

C=CC(=O)Nc1cccc(Oc2nc(Nc3ccc(N4CCN(C)CC4)cc3)nc3ccoc23)c1
IC50 (TMD8 RAC2 knock-out; calcium flux, FLIPR): < 0.1 µM

Nc1ncc(-c2cnn(C3CCNCC3)c2)cc1-c1nnc(CC2CC2)o1
IC50 (OCI-AML-3; cell viability; 72 h): 0.48 µM

NS(=O)(=O)c1ccc(NN=C2C(=O)Nc3ccc(C(=O)O)cc32)cc1
Kd (Cyclin-dependent kinase 2 (CDK2, Homo sapiens, UniProt P24941); average of ITC, Octet and Thermofluor; untagged protein): 0.232 µM

C#CCN1CCN(Cc2c(O)ccc3oc(-c4ccc(OC)cc4)c(C(=O)OCC)c23)CC1
IC50 (J774.A1; cytotoxicity, resazurin; up to 200 µM, 18 h): not toxic

COc1ccc2oc(C(=O)c3ccccc3)cc2c1-c1ccccc1
IC50 (FM3A; cell proliferation; 48 h): > 50 µM

C[C@@H]1CN(C(=O)c2ccc(NC(=O)c3cc(O[C@H](C)c4c(Cl)ccc(F)c4Cl)c(N)nn3)cc2)C[C@H](C)N1
IC50 (Aska-SS (ALK exon 2-17 deletion); cell viability): 0.0162 µM

Cc1c2ccnc(C(=O)N[C@H](C)CN(C)C)c2cc2c3cc(O)ccc3n(C)c12
IC50 (HEK293T (G4C2)66-No-ATG-GFP reporter; RAN translation of r(G4C2)exp, fluorescence reporter): 0.1 µM

CCn1ncc2c1-c1cnc(N)c(c1)O[C@H](C)c1cc(F)ccc1-c1nn(C)nc1C2
IC50 (Ba/F3 (TPM3-TRKA, ETV6-TRKB, ETV6-TRKC); cell viability; geometric mean): 0.27 µM

O=C(CSc1nnc(-c2ccc([N+](=O)[O-])cc2)n1-c1ccccc1)N1CCOCC1
Kd (Cyclin-dependent kinase 2, with cyclin A (CDK2, Homo sapiens, UniProt P24941)): > 100 µM

C=CC(=O)Nc1cc(Nc2nccc(-c3cn(C)c4ccccc34)n2)c(OC)cc1N(C)CCN(C)C
IC50 (NCI-H2073 KI SVD; cell proliferation, CellTiter-Glo; 72 h): 0.106 µM

O=C(Nc1c(Cl)cncc1Cl)c1ccc(OC(F)F)c(OCC2CC2)c1
IC50 (human PBMC; cytokine release, item: TNF-α; 24 h, added: anti-CD28, and anti-CD3ε): 0.0013 µM

CO[C@]12C[C@@H](COC(=O)c3cncc(Br)c3)CN(C)[C@@H]1Cc1cn(C)c3cccc2c13
IC50 (TW01; MTT; 48 h): 19.1 ± 8.7 µM

Cc1[nH]c(C)c(S(=O)(=O)Nc2ccc(C(F)(F)F)c(Cl)c2)c1C(=O)N1CCC(C)(C)C1
IC50 (D(3) dopamine receptor (DRD3, Homo sapiens, UniProt P35462); β-arrestin recruitment, antagonist, PathHunter; added: dopamine EC80): > 100 µM

Cc1cc(C(=O)COc2ccc(N3C(=O)[C@@H]4[C@@H]5C=C[C@@H]([C@H]6C[C@@H]56)[C@@H]4C3=O)cc2)ccc1Cl
IC50 (Mut6 cells; cell viability, CellTiter-Glo; 96 h): 0.000791 µM

CCOC(=O)c1c(-c2ccc(OC)cc2)oc2ccc(O)c(CN3CCN(Cc4cn(C[C@H]5O[C@H](O[C@H]6O[C@H](CO)[C@@H](O)[C@H](O)[C@H]6O)[C@H](O)[C@@H](O)[C@@H]5O)nn4)CC3)c12
IC50 (J774.A1; cytotoxicity, resazurin; 18 h): > 200 µM

Cn1cc(-c2ccc(-c3cncc(Cl)c3N3CCC4(CCNC4=O)CC3)cc2)cn1
fold change in expression (COLO 205; microarray, item: BBC3; concentration not given, 6 h, gene set PUMA; relative to: untreated cells): 3.35

CC1(C)CCC(CN2CCN(c3ccc(C(=O)NS(=O)(=O)c4ccc(NCC5CCOCC5)c([N+](=O)[O-])c4)c(Oc4cnc5[nH]ccc5c4)c3)CC2)=C(c2ccc(Cl)cc2)C1
IC50 (KMS-12-PE; cell viability, CellTiter-Glo): 0.0085 ± 0.0022 µM

NCc1ccc(-c2nn(Cc3ccccn3)c3cccnc23)o1
IC50 (SNU-1079; cell viability, CellTiter-Glo): 4.66 µM

C=CC(=O)N1CCC([C@@H]2CCNc3c(C(N)=O)c(-c4ccc(Oc5ccccc5)cc4)nn32)CC1
IC50 (TMD8; calcium flux, FLIPR; 1 h preincubation, added: anti-IgM): 0.0131 µM

Cc1cc(Nc2ncc(Cl)c(Nc3ccccc3S(=O)(=O)C(C)C)n2)c(OC(C)C)cc1C1CCNCC1
IC50 (Aska-SS (ALK exon 2-17 deletion); cell viability): 0.0291 µM

COc1cc(OC)cc(C(=O)c2cc3c(-c4ccccc4)c(OC)ccc3o2)c1
IC50 (FM3A; cell proliferation; 48 h): > 50 µM

COc1ccc(C(=O)COc2cccc(N3C(=O)[C@@H]4[C@@H]5C=C[C@@H]([C@H]6C[C@@H]56)[C@@H]4C3=O)c2)cc1
IC50 (Mut6 cells; cell viability, CellTiter-Glo; 96 h): 1.12 µM

O=C(O)COCC(=O)O
IC50 (hepatocytes, iPSC-derived, line L3; cell viability, RealTime-Glo MT; 48 h, differentiation day 23): 6660 µM

NCc1ccc(-c2nn(Cc3ccccc3)c3ccccc23)o1
IC50 (SNU-1079; cell viability, CellTiter-Glo): 2.62 µM

COc1ccc(COC[C@@](O)(CNCc2ccccc2)[C@@H]2CC[C@@H](C)C[C@H]2OCc2ccc(OC)cc2)cc1
IC50 (A2780; cell growth, inhibitor, MTT; 72 h): 1.64 µM

CC(=O)c1c(O)c(C)c(O)c2c1OC1=CC(=O)C(C(C)=O)C(=O)C12C (single isomer, unassigned; (+))
IC50 (hepatocytes, iPSC-derived, line L3; cell viability; 72 h): 31 µM

COc1cc(N2CCC(N3CCN(C)CC3)CC2)ccc1Nc1ncc(Cl)c(Nc2ccccc2P(C)(C)=O)n1
IC50 (Ba/F3 EML4-ALK v1, no mutation; cell viability): 0.0364 µM

CC#CC(=O)N1CCC[C@H]1c1nc(-c2ccc(C(=O)Nc3ccccn3)cc2)c2c(N)nccn12
IC50 (TMD8; calcium flux, FLIPR; 4 h preincubation, added: anti-IgM): > 1 µM

COc1cc(N2CCC(N3CCN(C)CC3)CC2)ccc1Nc1ncc(Cl)c(Nc2ccccc2S(=O)(=O)C(C)C)n1
IC50 (PDX-derived rhabdomyosarcoma cells; cell growth; 3 days): 1.3 ± 0.3 µM

N#CC[C@H](C1CCCC1)n1cc(-c2ncnc3[nH]ccc23)cn1
IC50 (human PBMC; cytokine release, item: IFN-γ; 24 h, added: anti-CD28, and anti-CD3ε): 0.05 µM

C[C@@H]1CC[C@@H]([C@](O)(CNCc2ccc(F)cc2)COCc2ccc(F)cc2)[C@H](OCc2ccc(F)cc2)C1
IC50 (A2780; cell growth, inhibitor, MTT; 72 h): 2.26 µM

Cc1cc(N2CCc3c(c(C)nn3CC34CCC(NC(=O)[C@@H]5COCCN5)(CC3)CC4)C2)c2cnn(C)c2n1
IC50 (human PBMC; qRT-PCR, item: MX1 mRNA; added: ssRNA): 0.0008 ± 0.0001 µM

C[C@H](Nc1ccc2c(c1)OCCn1cc(N3C(=O)OC[C@H]3C(F)F)nc1-2)C(N)=O
IC50 (MKN-1; CellTiter-Glo; 120 h): 3.58 µM

COc1ccc(F)cc1C(=O)NCc1ccc(-c2nn([C@@H](C)C(F)(F)F)c(N)c2C(N)=O)cc1
IC50 (TMD8; calcium flux; added: anti-IgM): 0.0063 µM

COc1cccc2c1C(=O)c1c(O)c3c(c(O)c1C2=O)C[C@@](O)(C(=O)CO)C[C@@H]3O[C@H]1C[C@H](N)[C@H](O)[C@H](C)O1
IC50 (A2780 cisplatin-resistant; cytotoxicity, WST-1; 72 h): 0.08 µM

COc1cc2nc(N3CCN(C(=O)c4ccco4)CC3)nc(N)c2cc1OC
IC50 (TW01; MTT; 48 h): 22.7 ± 13.8 µM

COc1ccc(CNC[C@@](C)(O)[C@@H]2CC[C@@H](C)C[C@H]2OCc2ccccc2)cc1
IC50 (A2780; cell growth, inhibitor, MTT; 72 h): 7.25 µM

COc1ccccc1C(=O)c1cc2c(-c3ccccc3)c(O)ccc2o1
IC50 (FM3A; cell proliferation; 48 h): > 50 µM

COc1cc(Cn2nc(-c3ccc(CO)o3)c3ccccc32)ccn1
IC50 (SNU-1079; cell viability, CellTiter-Glo): 0.41 µM

CC(C)(C[C@H]1CN(S(=O)(=O)c2cccc(C(F)(F)F)c2)c2cc(-c3cc(F)cc(OC(F)F)c3)ccc2O1)C(=O)O
IC50 (HCC70 and MDA-MB-468; cell growth, CellTiter-Glo; 96 h): ≥ 20 µM

OCc1ccc(-c2nn(Cc3ccccn3)c3cccnc23)o1
IC50 (SNU-1079; cell viability, CellTiter-Glo): 2.94 µM

COc1cccc2c1C(=O)c1c(O)c3c(c(O)c1C2=O)C[C@@](O)(C(=O)CO)C[C@@H]3O[C@H]1C[C@H](N)[C@H](O)[C@H](C)O1
IC50 (K562 compound-resistant; cell growth; 0 µM modulator): 1.96 ± 0.24 µM

C[C@H]1CN(C2COC2)CCN1c1ccc(Nc2cc(-c3ccnc(N4CCn5c(cc6c5CC(C)(C)C6)C4=O)c3CO)cn(C)c2=O)nc1
IC50 (TMD8; calcium flux, FLIPR; 1 h preincubation, added: anti-IgM): 0.012 µM

CN1CCC(NC2CCc3[nH]c4c(C(N)=O)ccc(-c5ccccc5Cl)c4c3C2)CC1 (stereo not shown)
IC50 (K562/DOX, doxorubicin-resistant; cell growth, CellTiter-Glo; 96 h): 0.0254 µM

OCc1ccc(-c2nn(Cc3cccnc3)c3cccnc23)o1
IC50 (SNU-1079; cell viability, CellTiter-Glo): 8.29 µM

Cc1c(C)c2c(c(C)c1O)CCC(C)(COc1ccc(CC3SC(=O)NC3=O)cc1)O2 (stereo not shown)
IC50 (hepatocytes, iPSC-derived, line L3; cell viability, RealTime-Glo MT; 24 h, differentiation day 23): 70 µM
